Measurements of several laboratories.
Parts stem from different laboratories: compare values within a part only.
UniProt P11802, sequence (whole entry, looked up): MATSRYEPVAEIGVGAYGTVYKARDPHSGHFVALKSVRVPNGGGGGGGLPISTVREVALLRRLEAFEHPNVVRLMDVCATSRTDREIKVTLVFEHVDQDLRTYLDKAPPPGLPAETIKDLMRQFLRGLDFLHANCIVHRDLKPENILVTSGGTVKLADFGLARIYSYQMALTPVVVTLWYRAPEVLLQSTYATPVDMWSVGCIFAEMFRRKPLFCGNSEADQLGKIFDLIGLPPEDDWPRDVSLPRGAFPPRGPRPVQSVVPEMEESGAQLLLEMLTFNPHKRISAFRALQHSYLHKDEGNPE
UniProt Q9UM73, sequence (whole entry, unmodified, looked up): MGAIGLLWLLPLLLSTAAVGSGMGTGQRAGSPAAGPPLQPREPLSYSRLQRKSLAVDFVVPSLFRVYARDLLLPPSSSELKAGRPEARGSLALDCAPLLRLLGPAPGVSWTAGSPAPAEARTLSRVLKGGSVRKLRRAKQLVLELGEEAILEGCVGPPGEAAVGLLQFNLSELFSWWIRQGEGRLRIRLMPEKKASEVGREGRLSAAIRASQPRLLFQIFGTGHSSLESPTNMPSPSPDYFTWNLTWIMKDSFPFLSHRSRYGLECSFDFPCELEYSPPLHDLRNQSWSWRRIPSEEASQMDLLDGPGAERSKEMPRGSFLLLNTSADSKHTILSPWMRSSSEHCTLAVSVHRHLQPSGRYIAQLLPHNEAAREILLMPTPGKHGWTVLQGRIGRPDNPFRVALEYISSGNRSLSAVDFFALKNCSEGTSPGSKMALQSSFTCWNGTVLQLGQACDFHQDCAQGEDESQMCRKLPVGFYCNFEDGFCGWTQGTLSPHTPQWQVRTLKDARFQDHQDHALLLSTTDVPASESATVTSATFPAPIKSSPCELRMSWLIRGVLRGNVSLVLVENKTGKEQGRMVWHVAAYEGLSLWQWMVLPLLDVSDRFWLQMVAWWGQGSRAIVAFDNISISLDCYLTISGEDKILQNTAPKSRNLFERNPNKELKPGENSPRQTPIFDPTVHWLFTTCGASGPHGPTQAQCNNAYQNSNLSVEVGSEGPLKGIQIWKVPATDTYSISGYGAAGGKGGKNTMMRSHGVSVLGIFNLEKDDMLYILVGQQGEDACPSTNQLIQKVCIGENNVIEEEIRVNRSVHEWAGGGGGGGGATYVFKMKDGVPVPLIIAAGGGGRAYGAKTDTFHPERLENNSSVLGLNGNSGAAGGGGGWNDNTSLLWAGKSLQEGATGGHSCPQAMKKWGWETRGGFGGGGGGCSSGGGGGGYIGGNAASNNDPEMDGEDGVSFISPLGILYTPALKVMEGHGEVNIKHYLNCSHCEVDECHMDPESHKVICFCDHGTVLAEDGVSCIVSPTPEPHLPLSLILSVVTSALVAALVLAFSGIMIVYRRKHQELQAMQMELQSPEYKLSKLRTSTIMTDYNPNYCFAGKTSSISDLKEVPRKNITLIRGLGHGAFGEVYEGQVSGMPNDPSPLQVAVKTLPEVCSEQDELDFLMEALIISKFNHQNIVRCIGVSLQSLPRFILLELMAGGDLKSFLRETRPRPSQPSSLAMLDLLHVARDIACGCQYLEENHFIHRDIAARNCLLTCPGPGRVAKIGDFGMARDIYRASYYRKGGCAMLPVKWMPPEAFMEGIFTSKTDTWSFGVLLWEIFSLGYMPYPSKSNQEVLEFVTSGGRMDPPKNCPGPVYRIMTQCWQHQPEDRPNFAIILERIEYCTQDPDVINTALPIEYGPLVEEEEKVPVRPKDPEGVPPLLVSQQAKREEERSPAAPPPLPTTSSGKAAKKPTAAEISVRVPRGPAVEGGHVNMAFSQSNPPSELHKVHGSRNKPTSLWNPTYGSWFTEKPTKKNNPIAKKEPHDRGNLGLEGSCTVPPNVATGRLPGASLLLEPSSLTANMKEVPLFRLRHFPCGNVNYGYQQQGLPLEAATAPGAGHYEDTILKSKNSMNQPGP
UniProt O14730, sequence (whole entry, looked up): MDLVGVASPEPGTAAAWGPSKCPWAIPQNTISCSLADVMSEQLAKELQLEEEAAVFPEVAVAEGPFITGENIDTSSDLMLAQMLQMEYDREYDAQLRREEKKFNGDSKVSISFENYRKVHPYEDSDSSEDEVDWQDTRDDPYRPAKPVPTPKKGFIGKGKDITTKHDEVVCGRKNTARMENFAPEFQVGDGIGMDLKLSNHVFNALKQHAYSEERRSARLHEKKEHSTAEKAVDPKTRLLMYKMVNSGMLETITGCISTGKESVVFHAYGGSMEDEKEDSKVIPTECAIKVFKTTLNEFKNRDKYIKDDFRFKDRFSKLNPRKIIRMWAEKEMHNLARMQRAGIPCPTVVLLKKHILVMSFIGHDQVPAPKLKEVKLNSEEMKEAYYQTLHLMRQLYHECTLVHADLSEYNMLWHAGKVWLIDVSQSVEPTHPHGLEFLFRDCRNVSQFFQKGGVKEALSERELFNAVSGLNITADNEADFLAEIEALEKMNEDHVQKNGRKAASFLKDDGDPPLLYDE
UniProt Q14164, sequence (whole entry, looked up): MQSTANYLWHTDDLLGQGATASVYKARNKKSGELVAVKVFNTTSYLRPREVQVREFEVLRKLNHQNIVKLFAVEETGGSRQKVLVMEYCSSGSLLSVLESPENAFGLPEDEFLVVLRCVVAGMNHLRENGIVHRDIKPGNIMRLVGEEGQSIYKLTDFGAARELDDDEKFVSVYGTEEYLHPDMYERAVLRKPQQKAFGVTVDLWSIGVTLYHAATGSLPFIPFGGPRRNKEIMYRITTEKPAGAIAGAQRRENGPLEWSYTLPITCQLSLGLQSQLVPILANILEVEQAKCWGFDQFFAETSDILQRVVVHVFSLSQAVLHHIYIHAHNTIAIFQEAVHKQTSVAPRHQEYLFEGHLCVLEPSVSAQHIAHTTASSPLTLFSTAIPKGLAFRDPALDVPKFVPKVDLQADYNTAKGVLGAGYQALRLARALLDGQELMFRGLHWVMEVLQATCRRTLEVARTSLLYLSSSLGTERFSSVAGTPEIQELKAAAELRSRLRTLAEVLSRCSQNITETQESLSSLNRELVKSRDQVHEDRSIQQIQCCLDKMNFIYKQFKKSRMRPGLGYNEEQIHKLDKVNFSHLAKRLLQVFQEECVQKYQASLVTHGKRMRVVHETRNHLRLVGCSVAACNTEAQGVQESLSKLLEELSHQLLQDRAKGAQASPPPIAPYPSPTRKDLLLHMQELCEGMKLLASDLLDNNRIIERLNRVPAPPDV
UniProt Q8WU08, sequence (whole entry, looked up): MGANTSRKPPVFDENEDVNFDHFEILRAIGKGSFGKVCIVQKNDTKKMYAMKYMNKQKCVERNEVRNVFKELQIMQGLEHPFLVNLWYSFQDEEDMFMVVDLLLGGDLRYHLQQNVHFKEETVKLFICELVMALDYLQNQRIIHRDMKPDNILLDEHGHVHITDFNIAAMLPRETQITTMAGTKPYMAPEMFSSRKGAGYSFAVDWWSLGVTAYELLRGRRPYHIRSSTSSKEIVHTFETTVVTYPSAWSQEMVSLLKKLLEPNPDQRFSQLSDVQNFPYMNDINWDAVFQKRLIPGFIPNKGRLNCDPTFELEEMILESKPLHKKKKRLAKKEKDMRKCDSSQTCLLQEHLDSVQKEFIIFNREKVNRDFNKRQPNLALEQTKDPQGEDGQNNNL
UniProt O43293, sequence (whole entry, looked up): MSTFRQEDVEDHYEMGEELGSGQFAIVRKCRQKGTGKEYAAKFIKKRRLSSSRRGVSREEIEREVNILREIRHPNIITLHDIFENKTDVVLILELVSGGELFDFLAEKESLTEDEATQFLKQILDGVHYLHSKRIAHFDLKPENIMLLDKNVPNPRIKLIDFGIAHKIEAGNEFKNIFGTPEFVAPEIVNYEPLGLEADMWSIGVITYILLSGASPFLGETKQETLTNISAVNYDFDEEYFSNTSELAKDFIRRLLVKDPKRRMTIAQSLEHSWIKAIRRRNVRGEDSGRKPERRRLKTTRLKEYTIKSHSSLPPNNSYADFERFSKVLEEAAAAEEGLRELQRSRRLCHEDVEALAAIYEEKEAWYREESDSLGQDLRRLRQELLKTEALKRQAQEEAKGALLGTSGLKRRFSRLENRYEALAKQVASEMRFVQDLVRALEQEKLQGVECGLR

Sample 1 — Structure (SMILES): C=CCc1ccc(O)c(-c2cc(CC=C)ccc2O)c1
ANO1 del476-501/E649A: Anoctamin-1 (ANO1, Homo sapiens, UniProt Q5XXA6, del476-501/E649A)
UniProt Q5XXA6, sequence (whole entry, unmodified, looked up): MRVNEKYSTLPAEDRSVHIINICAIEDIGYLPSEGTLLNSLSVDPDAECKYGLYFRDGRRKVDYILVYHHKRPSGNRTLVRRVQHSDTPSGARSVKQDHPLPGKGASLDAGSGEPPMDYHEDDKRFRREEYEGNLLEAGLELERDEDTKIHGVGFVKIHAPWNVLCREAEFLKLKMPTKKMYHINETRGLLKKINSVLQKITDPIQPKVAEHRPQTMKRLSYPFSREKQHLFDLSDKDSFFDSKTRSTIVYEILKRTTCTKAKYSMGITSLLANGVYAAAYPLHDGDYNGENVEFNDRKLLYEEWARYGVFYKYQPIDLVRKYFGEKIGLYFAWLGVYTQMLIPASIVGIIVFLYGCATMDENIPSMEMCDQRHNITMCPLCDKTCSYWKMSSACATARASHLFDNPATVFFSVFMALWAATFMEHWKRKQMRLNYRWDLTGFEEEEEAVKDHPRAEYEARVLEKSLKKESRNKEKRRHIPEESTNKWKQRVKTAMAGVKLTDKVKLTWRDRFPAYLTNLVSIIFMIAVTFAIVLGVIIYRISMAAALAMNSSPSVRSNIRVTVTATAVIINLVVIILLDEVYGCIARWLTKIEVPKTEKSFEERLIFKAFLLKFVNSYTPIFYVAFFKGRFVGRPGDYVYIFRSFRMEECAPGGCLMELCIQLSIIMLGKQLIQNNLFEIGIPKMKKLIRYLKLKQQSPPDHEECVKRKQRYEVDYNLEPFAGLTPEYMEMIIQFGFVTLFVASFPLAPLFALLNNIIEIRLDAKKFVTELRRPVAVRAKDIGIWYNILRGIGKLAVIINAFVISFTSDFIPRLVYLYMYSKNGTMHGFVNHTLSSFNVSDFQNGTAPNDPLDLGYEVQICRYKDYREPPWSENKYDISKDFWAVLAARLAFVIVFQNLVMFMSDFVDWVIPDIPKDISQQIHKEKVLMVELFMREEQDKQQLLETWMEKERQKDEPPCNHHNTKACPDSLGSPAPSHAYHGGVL
ANO1 del476-501/E649A/R541A: Anoctamin-1 (ANO1, Homo sapiens, UniProt Q5XXA6, del476-501/E649A/R541A)
ANO1 del476-501/R541A: Anoctamin-1 (ANO1, Homo sapiens, UniProt Q5XXA6, del476-501/R541A)
ANO1: Anoctamin-1 (ANO1, Homo sapiens, UniProt Q5XXA6)
ANO1 del476-501/E659A: Anoctamin-1 (ANO1, Homo sapiens, UniProt Q5XXA6, del476-501/E659A)
For ANO1 del476-501/E649A; chloride current, inhibitor, inside-out patch clamp; 30 µM, E623A mutant at -80 mV: normalized current read -0.501.
ANO1 del476-501/E649A/R541A; chloride current, inside-out patch clamp; 30 µM, membrane voltage 40 mV — normalized current: 0.217.
The normalized current was 0.517 (ANO1 del476-501/R541A; chloride current, inhibitor, whole-cell voltage clamp; 100 µM, R515A mutant).
Anoctamin-1 (ANO1, Homo sapiens, UniProt Q5XXA6, del476-501/K629A); chloride current, inhibitor, whole-cell voltage clamp; 30 µM; reference: untreated — normalized current: 0.946.
It gave -0.261 for normalized current (ANO1 del476-501/E649A/R541A; chloride current, inside-out patch clamp; 30 µM, membrane voltage -60 mV).
The normalized current was 1 (Anoctamin-1 (ANO1, Homo sapiens, UniProt Q5XXA6, del476-501/E659A/K629A); chloride current, inside-out patch clamp; 30 µM, membrane voltage 120 mV).
For ANO1 del476-501/R541A; chloride current, inhibitor, inside-out patch clamp; 30 µM, R515A mutant at -100 mV: normalized current read -0.555.
For ANO1; chloride current, inhibitor, inside-out patch clamp; 30 µM, wild type at -80 mV: normalized current read 90.9.
It gave 0.753 for normalized current (ANO1 del476-501/E659A; chloride current, inside-out patch clamp; 30 µM, membrane voltage 100 mV).
It gave -0.25 for normalized current (ANO1 del476-501/E649A; ion current, inside-out patch clamp; 30 µM, E623A mutant at -40 mV).
ANO1 del476-501/R541A; chloride current, inside-out patch clamp; 30 µM, membrane voltage 0 mV — normalized current: -0.0008.
For ANO1 del476-501/E659A; chloride current, inside-out patch clamp; 30 µM, membrane voltage 40 mV: normalized current read 0.299.
The normalized current was 0.594 (ANO1 del476-501/E649A; ion current, inside-out patch clamp; 30 µM, E623A mutant at 80 mV).
ANO1; chloride current, inside-out patch clamp; 30 µM, membrane voltage -40 mV — normalized current: -0.441.

Sample 2 — technique: competition with immobilised ligand; concentration: 1 µM
Compound: Cc1cc(-n2nc(Cc3cc(F)cc(C(F)(F)F)c3)nc2C)ccc1C(N)=O
The remaining binding was 100% (Proto-oncogene tyrosine-protein kinase receptor Ret (RET, Homo sapiens, UniProt P07949, M918T); cell-free assay).
For Myosin-IIIa (MYO3A, Homo sapiens, UniProt Q8NEV4); binding: remaining binding read 100%.
It gave 100% for remaining binding (Activin receptor type-2B (ACVR2B, Homo sapiens, UniProt Q13705); binding).
The remaining binding was 100% (Cyclin-dependent kinase 4, with cyclin D3 (CDK4, Homo sapiens, UniProt P11802); cell-free assay).
The remaining binding was 100% (Insulin receptor-related protein (INSRR, Homo sapiens, UniProt P14616); cell-free assay).
The remaining binding was 100% (Receptor-type tyrosine-protein kinase FLT3 (FLT3, Homo sapiens, UniProt P36888, K663Q); cell-free assay).
The remaining binding was 100% (Cyclin-G-associated kinase (GAK, Homo sapiens, UniProt O14976); cell-free assay).
It gave 100% for remaining binding (Casein kinase I isoform epsilon (CSNK1E, Homo sapiens, UniProt P49674); cell-free assay).
Death-associated protein kinase 3 (DAPK3, Homo sapiens, UniProt O43293); cell-free assay — remaining binding: 87%.
For Epidermal growth factor receptor (EGFR, Homo sapiens, UniProt P00533, L858R/T790M); cell-free assay: remaining binding read 90%.
For Tyrosine-protein kinase ABL2 (ABL2, Homo sapiens, UniProt P42684); cell-free assay: remaining binding read 100%.
The remaining binding was 100% (Ribosomal protein S6 kinase alpha-3, C-terminal kinase domain (RPS6KA3, Homo sapiens, UniProt P51812); cell-free assay).
It gave 100% for remaining binding (MAP kinase-activated protein kinase 2 (MAPKAPK2, Homo sapiens, UniProt P49137); cell-free assay).
Calcium/calmodulin-dependent protein kinase kinase 2 (CAMKK2, Homo sapiens, UniProt Q96RR4); cell-free assay — remaining binding: 100%.
It gave 85% for remaining binding (Serine/threonine-protein kinase 32A (STK32A, Homo sapiens, UniProt Q8WU08); cell-free assay).
It gave 100% for remaining binding (Ephrin type-B receptor 2 (EPHB2, Homo sapiens, UniProt P29323); cell-free assay).
For Inhibitor of nuclear factor kappa-B kinase subunit epsilon (IKBKE, Homo sapiens, UniProt Q14164); cell-free assay: remaining binding read 82%.
It gave 62% for remaining binding (Interferon-induced, double-stranded RNA-activated protein kinase (EIF2AK2, Homo sapiens, UniProt P19525); cell-free assay).
The remaining binding was 100% (Tyrosine-protein kinase JAK3, JH1 (JAK3, Homo sapiens, UniProt P52333); cell-free assay).
For Homeodomain-interacting protein kinase 3 (HIPK3, Homo sapiens, UniProt Q9H422); cell-free assay: remaining binding read 100%.
It gave 83% for remaining binding (Epidermal growth factor receptor (EGFR, Homo sapiens, UniProt P00533, del747-752/P753S); cell-free assay).
It gave 100% for remaining binding (ALK tyrosine kinase receptor (ALK, Homo sapiens, UniProt Q9UM73, C1156Y); cell-free assay).
The remaining binding was 100% (Serine/threonine-protein kinase RIO3 (RIOK3, Homo sapiens, UniProt O14730); cell-free assay).
Serine/threonine-protein kinase Sgk2 (SGK2, Homo sapiens, UniProt Q9HBY8); cell-free assay — remaining binding: 100%.
The remaining binding was 79% (Tyrosine-protein kinase Fer (FER, Homo sapiens, UniProt P16591); cell-free assay).

Sample 3 — effect on: enzyme activity; mode: inhibitor; concentration: 0.5 µM; reference: control
Target: Cyclin-dependent kinase 4, with cyclin D3 (CDK4, Homo sapiens, UniProt P11802)
`O=C1c2ccccc2-c2n[nH]c3cccc1c23` gave a remaining activity of 104%.
For `Cc1nc2cc3nc(-c4cccs4)cnc3cc2n1C`, the remaining activity was 101%.
With `CCN(CC)CCNC(=O)c1c(C)[nH]c(/C=C2\C(=O)Nc3ccc(Cl)cc32)c1C` the remaining activity was 86.3%.
`CN([C@@H](Cc1ccc(OS(=O)(=O)c2cccc3cnccc23)cc1)C(=O)N1CCN(c2ccccc2)CC1)S(=O)(=O)c1cccc2cnccc12` gave a remaining activity of 97.8%.
With `N#Cc1c(NC(=O)c2cccc3ccccc23)sc2c1CCCC2` the remaining activity was 97.1%.
For `Cn1nc2c3c(cccc31)C(=O)c1ccccc1-2`, the remaining activity was 92.4%.
For `O=C1C(Cl)=C(N2C(=O)CCC2=O)C(=O)c2ccccc21`, the remaining activity was 107%.
`CCOc1nc(NC(=O)Cc2cc(OC)ccc2OC)cc(N)c1C#N` gave a remaining activity of 95.2%.
`c1ccc(-c2cnc(Nc3ccc(OCCN4CCCC4)cc3)s2)cc1` has a remaining activity of 84.9%.
With `CN(C)C[C@H]1CCn2c(c(C3=C(c4cn(C)c5ccccc45)C(=O)NC3=O)c3ccccc32)C1` the remaining activity was 99.7%.
`Ic1cccc(CSc2nnc(-c3ccncc3)o2)c1` gave a remaining activity of 97.5%.
`O=C(Nc1cccc(Nc2nccc(Nc3cccc(C(F)(F)F)c3)n2)c1)C1CC1` gave a remaining activity of 103%.
`O=c1cc(-c2cccc3c2Sc2ccccc2S3)oc(N2CCOCC2)c1` gave a remaining activity of 99.2%.
The remaining activity of `CCN(CC)C(=O)c1ccc(Nc2nc(OCC3CCCCC3)c3[nH]cnc3n2)cc1` is reported as 59.2%.
`Cc1cc2ncc(-c3ccccc3)nc2cc1C` gave a remaining activity of 94.6%.
`O=C(NC(NC(=S)Nc1ccc(F)c([N+](=O)[O-])c1)C(Cl)(Cl)Cl)C(c1ccccc1)c1ccccc1` (centres unmarked) has a remaining activity of 93.7%.
`c1ccc(-c2[nH]ncc2-c2ccnc3ccccc23)nc1` gave a remaining activity of 102%.
`Cc1cn(-c2cc(NC(=O)c3ccc(C)c(Nc4nccc(-c5cccnc5)n4)c3)cc(C(F)(F)F)c2)cn1` has a remaining activity of 108%.
For `N#C/C(=C\c1ccc(O)c(O)c1)C(=O)NCc1ccccc1`, the remaining activity was 98%.
With `COc1cc2ncnc(Nc3ccc(O)c(Br)c3)c2cc1OC` the remaining activity was 110%.
With `Nc1cccc(-c2cc3c(Oc4cccc(O)c4)ncnc3[nH]2)c1` the remaining activity was 92.8%.

Sample 4 — organism: Sarcocystis neurona; effect on: parasite growth; concentration: 10 µM; notes: secondary screen
For `CN(C)[C@@H]1C(O)=C(C(N)=O)C(=O)[C@@]2(O)C(O)=C3C(=O)c4c(O)ccc(Cl)c4[C@@H](O)[C@H]3C[C@@H]12`, the inhibition was -2.3%.
With `CC(=O)O[C@]1(C(C)=O)CC[C@H]2[C@@H]3C[C@H](C)C4=CC(=O)CC[C@]4(C)[C@H]3CC[C@@]21C` the inhibition was -40.4%.
`CCC(=O)O[C@]1(C(=O)SCF)[C@H](C)C[C@H]2[C@@H]3C[C@H](F)C4=CC(=O)C=C[C@]4(C)[C@@]3(F)[C@@H](O)C[C@@]21C` has an inhibition of -21.9%.
For `CCOc1cc(N)c(Cl)cc1C(=O)NCC1CN(Cc2ccc(F)cc2)CCO1` (centres unmarked), the inhibition was 66.2%.
The inhibition of `CCCc1nc(C(C)(C)O)c(C(=O)OCc2oc(=O)oc2C)n1Cc1ccc(-c2ccccc2-c2nnn[nH]2)cc1` is reported as 1.2%.
The inhibition of `CN1CCN(C2=Nc3cc(Cl)ccc3Nc3ccccc32)CC1` is reported as -48.5%.
For `NS(=O)(=O)c1cc(C2(O)NC(=O)c3ccccc32)ccc1Cl` (centres unmarked), the inhibition was -15.7%.
With `CC(C)[N+](C)(CCOC(=O)C1c2ccccc2Oc2ccccc21)C(C)C.[Br-]` the inhibition was -40.7%.
`O=c1n(CCCN2CCN(c3cccc(Cl)c3)CC2)nc2ccccn12` has an inhibition of -54%.
`Nc1nnc(-c2cccc(Cl)c2Cl)c(N)n1` gave an inhibition of -33%.
`OCCN1CCN(CCCN2c3ccccc3Sc3ccc(C(F)(F)F)cc32)CC1` gave an inhibition of 84.6%.
The inhibition of `[H]/N=C(/NCCCCC)N/N=C/c1c[nH]c2ccc(OC)cc12` is reported as 98.7%.
For `COC(=O)Nc1nc2ccc(C(=O)c3ccccc3)cc2[nH]1`, the inhibition was -138%.
With `CCOC(=O)OC(C)OC1=C(C(=O)Nc2ccccn2)N(C)S(=O)(=O)c2ccccc21` (centres unmarked) the inhibition was -33.2%.

Repeated from above (sample 1):
It gave -0.261 for normalized current (ANO1 del476-501/E649A/R541A; chloride current, inside-out patch clamp; 30 µM, membrane voltage -60 mV).
The normalized current was 1 (Anoctamin-1 (ANO1, Homo sapiens, UniProt Q5XXA6, del476-501/E659A/K629A); chloride current, inside-out patch clamp; 30 µM, membrane voltage 120 mV).
For ANO1 del476-501/R541A; chloride current, inhibitor, inside-out patch clamp; 30 µM, R515A mutant at -100 mV: normalized current read -0.555.
For ANO1; chloride current, inhibitor, inside-out patch clamp; 30 µM, wild type at -80 mV: normalized current read 90.9.
It gave 0.753 for normalized current (ANO1 del476-501/E659A; chloride current, inside-out patch clamp; 30 µM, membrane voltage 100 mV).
It gave -0.25 for normalized current (ANO1 del476-501/E649A; ion current, inside-out patch clamp; 30 µM, E623A mutant at -40 mV).
ANO1 del476-501/R541A; chloride current, inside-out patch clamp; 30 µM, membrane voltage 0 mV — normalized current: -0.0008.
For ANO1 del476-501/E659A; chloride current, inside-out patch clamp; 30 µM, membrane voltage 40 mV: normalized current read 0.299.
The normalized current was 0.594 (ANO1 del476-501/E649A; ion current, inside-out patch clamp; 30 µM, E623A mutant at 80 mV).
ANO1; chloride current, inside-out patch clamp; 30 µM, membrane voltage -40 mV — normalized current: -0.441.
